Measurements gathered from unrelated publications.
Every numbered part comes from another study and shows a few of its results, in no order.

Set 1
Target: Histone acetyltransferase KAT6A, winged helix 2, GST fusion (KAT6A, Homo sapiens, UniProt Q92794, residues 85-181)
Technique: protein binding microarray
Molecule type: double-stranded DNA, one strand shown
Matrix: in vitro
Tested at: not given
Notes: 8-mer, flanks averaged, mean of 2 arrays, mostly near background
Relative to: not given
Direction: higher = stronger binding
Target sequence (chain): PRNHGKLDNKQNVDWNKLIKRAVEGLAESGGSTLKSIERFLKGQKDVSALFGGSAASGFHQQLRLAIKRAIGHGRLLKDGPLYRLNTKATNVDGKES
Oligonucleotide	E-score
TGATTCCA	-0.205
CCTACCAG	-0.12
GAAACCTA	-0.048
ACATTCCC	0.0803
CCGTCCTC	0.0327
AGAGAGAA	0.0733
ACCTCCGT	0.126
TCAAACCA	0.00498
AAACGTTG	-0.205
ACGCGGCA	0.0143
CCCGACGG	0.127
GTGTCTAA	0.0408
GTTAAGTA	-0.0436
AGCGGTGG	-0.0207
CATCTAAG	-0.163
GTAACTGA	-0.233
CGGTGTAG	-0.0785
TCCACCAA	0.108
ACCTATAC	-0.177

Set 2
Target: Interferon regulatory factor 3, full length, phosphomimetic (IRF3, Homo sapiens, UniProt Q14653, residues 1-427, S386D/S396D/S398D/S402D/T404D/S405D)
Technique: protein-binding microarray
Molecule type: double-stranded DNA, one strand shown
Matrix: in vitro
Tested at: 2540 nM top
Notes: 60-bp whole probe
With: salmon DNA 0.4 mg/ml
Relative to: random background probes
Direction: higher = stronger binding
Shared flanks, not repeated: GCCTAGCAC … GTCTTGATTCGCTTGACGCTGCTG
Residues (chain): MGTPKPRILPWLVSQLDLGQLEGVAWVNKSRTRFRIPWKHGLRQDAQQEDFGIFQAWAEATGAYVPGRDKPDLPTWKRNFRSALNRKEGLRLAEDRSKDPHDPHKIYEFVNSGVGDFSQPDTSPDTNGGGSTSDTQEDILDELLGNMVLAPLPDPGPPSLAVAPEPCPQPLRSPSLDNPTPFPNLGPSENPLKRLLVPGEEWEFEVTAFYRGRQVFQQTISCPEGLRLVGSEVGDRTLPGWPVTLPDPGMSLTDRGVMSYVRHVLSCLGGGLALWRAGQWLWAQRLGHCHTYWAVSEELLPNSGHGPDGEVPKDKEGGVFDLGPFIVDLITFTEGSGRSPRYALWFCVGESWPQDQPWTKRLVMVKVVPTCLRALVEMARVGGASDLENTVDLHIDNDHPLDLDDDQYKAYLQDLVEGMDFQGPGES
Oligonucleotide	fitted relative affinity [z-score]
GAGGGACTGCTTCTCCTGACGTGCTAG	-0.74
TTAGGTATCGGTCCCGGTTAGTGCTAG	2.15
CTTTAACTTATTCTCTACTTGTGCTAG	1.25
TTAGGTTTTCTTTCCCTTTAGTGCTAG	5.14
GACGATTTCAGTTCCGACACGTGCTAG	2.98
TTTCCTATGTCATTTACATTGTGCTAG	4.95
GGGCAGGAAACGGAGGACACGTGCTAG	-0.493
TCATTTTTCTAACTAAAACTGTGCTAG	2.32
GACGATCTCGGACTGGAGACGTGCTAG	0.199
ATCGATTTCTTCCCTGTGAAAGTGCTA	0.732
TTAGGTTTCCTTTTCCTTGAGTGCTAG	11.4
GAGGGACTGGGGTATCGGGACGTGCTA	-0.691
TCAAGTTTTCTTTTCATACTGTGCTAG	4.98
TCATCTCTCTTTCCACTACTGTGCTAG	2.1
ATTTGTAAGTACATTAACTCGTGCTAG	0.519
TTAGGTATTGGGACTGGGTTAGTGCTA	-0.743
GACGGTCTCCTTCTCGTGACGTGCTAG	4.37
TATATATCCATTATAGATGAGTGCTAG	1.63
CCTCCTCTAACTTTCCAATTGTGCTAG	2.72

Set 3
Target: RNA binding protein fox-1 homolog 2, RRM domain, GST-SBP tag (RBFOX2, Homo sapiens, UniProt O43251-10, residues 100-194)
Technique: RNA Bind-n-Seq
Molecule type: RNA
Matrix: in vitro
Tested at: 365 nM
Notes: natural RNA segment, single round, ends assumed
Relative to: no-protein control
Direction: higher = stronger binding
Shared flanks, not repeated: GGGAGUUCUACAGUCCGACGAUC … UGGAAUUCUCGGGUGCCAA
Target sequence (chain): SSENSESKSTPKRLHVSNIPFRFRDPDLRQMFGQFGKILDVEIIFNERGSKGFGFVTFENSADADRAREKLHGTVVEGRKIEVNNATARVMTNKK
Oligonucleotide	RBNS enrichment (R)
AUAUCAAAUGUAUAGUUAUGAACUAGUUAUGAAAUAAUCUUAUGGUUGAGGGUCACCACAACAUGAGGAACUAUAUUAAAGACUCGUGGCAUUAGGAAGGUUGAGAACCA	0.608
UGCUUCUGGACCAGAACAGCUCCAGCUCCCAGGUAUUUUCUACAGGACCACUUGAGUGGGCAGCCAAGCCCAGGCUCGCAGUAUCAAUAAAGCAGUUCUCUGAGGAAUGA	0.259
CAUCAGUUGUUCUUGGAAGUUUUUAGAAGACCUCACGGACUUUGCAGUUUAUUUUUCUUGGCCAACACAUUAAAACCAUUCUUGGAUUUCAAGUAGCCAAUUUUGCCUUU	0.504
CGGACUUCAGGGGACACGUUUAGUAUAUUAAGACAUGCUGAUGGAAACAGUAUCUUCAAAAAAAUCAGCAGCAAUUGAAAUGCUACAAAAGACUUUGUUUAAAGAUUUUA	1.19
GAUACUGUCCCCAGGAGCACCCUCCCUGCCCGUCUUGUCCCUCUGCCCCUCCCACCUGCACAUGUCACACUGACCACAUCUGUAGACAUCUUGAGUUGUAGCUGCAGACG	2.04
UAGAUGGCGAACUUGAUGAAAAGUAUAAGAAGGUAGAAAGUUUAAUUGCCCAAAAAACUGAAGAGUCAGCAGAUGCCAGGAGGAAAGCUGAGCUGCUACAAAAUGAAGCA	2.55
UUUUUAAACAAGAAAAGCUGUGCUCUUUUAUGUGAUGCCUUUUUUAUUUAUUCAGGCUAUACCUACAAUAUGUGAAUCAAACUGUUUAAUGAAUCCUGGGACAUACUGAU	0.409
GGAGGGGCAGAGAGGUAGGUGGCACAGAAGAUGGGGCUUUAUGCUUGUAAAUAUUGAUAGCACUGGCUUCCUCCAAAGUCCCAAUACUCUAGCCCCGCUCUCUUCCCCUC	0.787

Set 4
Target: RING finger protein unkempt homolog, zinc fingers 1-6, SBP tag (UNK, Homo sapiens, UniProt Q9C0B0, residues 30-357)
Sequence of UniProt Q9C0B0 (30-357, looked up): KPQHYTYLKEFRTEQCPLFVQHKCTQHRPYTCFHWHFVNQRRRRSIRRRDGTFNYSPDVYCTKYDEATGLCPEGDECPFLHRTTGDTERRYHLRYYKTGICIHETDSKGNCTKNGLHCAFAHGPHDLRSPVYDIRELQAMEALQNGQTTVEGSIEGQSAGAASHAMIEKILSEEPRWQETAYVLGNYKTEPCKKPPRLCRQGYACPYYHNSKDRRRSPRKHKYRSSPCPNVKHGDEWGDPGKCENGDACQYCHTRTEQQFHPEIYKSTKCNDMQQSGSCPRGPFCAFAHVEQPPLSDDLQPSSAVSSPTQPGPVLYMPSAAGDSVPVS
Technique: RNA Bind-n-Seq
Molecule type: RNA
Matrix: in vitro
Tested at: 100 nM
Notes: RNA with constant flanks, vertebrate orthologous sites, ends assumed
Relative to: input RNA pool
Direction: higher = stronger binding
Shared flanks, not repeated: GGGAGUUCUACAGUCCGACGAUC … CAACAGAGGAUUGAGCAUCA
Oligonucleotide	bound/input enrichment [ratio]
AAAGCCAUUUUUCACAUUUCCUGUAAAUAGUGGUUAAUCAUUUUUUUAAAUUUCAUUUUUAAGUGCUGUUUUAACAAUGUGGAUAGACCAUAAAUGUACUUGCUGAAUUCAUUCAUUUUU	0.367
GACAGGGCCCAGGCCCCCGCCACUCAGAGUGACCCACUGGCCACUUCAGCCAGGCCAUUUUGGCUCUGUUUUUUAUUUUAACAGUGCCCUUAUUACCCCUGUAUAUAUGCCUGAGAUUUG	0.685
CUACUAUAAACAACUCAGGGCAGUAUUCUCGUUACCCUUACAGUAACCUAAAUCAGGGAUUAGUAAAUAAUACAGGGAUGAAUCAGAAUUUAGGCCUUACAAAUAACACUCCAAUGAAUC	1.14
UUACAGUCAUUGAUGGACUCUAUUUUUUUAUUAUUACUUGGACCUUGGUCGUUUUUAUACUAGCAAAAUGUCUUGUUUUAAUUUGUGUUUUUUUUUGGGGGGGGGAGGGAGUGAACUUGC	2.94
UAAUGUGUUUUUAUUUAUUAAAGACAAUUUUGUGCUAAGGACUGUGUUAGAUUUAUAUAUUAGUGAAUUGAUUCCUCUUUGUUGUGUUACUUUUGUUGUUGAAAAUAAAAAGAACUUUGA	2.16
CUGUUGUCAAGCACUGUGUUCCAGACCGUGUCUGACUGUAGUGUAACCUAGGAGACUUUAUAGUUUUGUUUUAUUGAAACCCGCGUGCCGCAGAGCCCGGGAGGGCAGUGUCUCCGUGUG	1.24
UCCCUAACUUGUUCUAGCUUGUGAUCCUGCAAAGUUGGGUGAAGCACUGGUGCCAGAUACCAGAAAUUUUCAUUUCUCUAUUGCCGCUGAUCAGAGAGACAGACAUGAAAAAACAGGAAU	0.342
GCUGUGUAGAGUAGGGCCGUGUUCUCCUUAGGAUGUUGCUUCUUGAUUUUUUUUUUUUUUUAGGGGUGGGUCAGGGUUGUGACACACCAGCCCAGGUGAGAGCUGAUGCGGUUCACCUCA	2.64

A few entries again (set 4):
Oligonucleotide	bound/input enrichment [ratio]
CUACUAUAAACAACUCAGGGCAGUAUUCUCGUUACCCUUACAGUAACCUAAAUCAGGGAUUAGUAAAUAAUACAGGGAUGAAUCAGAAUUUAGGCCUUACAAAUAACACUCCAAUGAAUC	1.14
UUACAGUCAUUGAUGGACUCUAUUUUUUUAUUAUUACUUGGACCUUGGUCGUUUUUAUACUAGCAAAAUGUCUUGUUUUAAUUUGUGUUUUUUUUUGGGGGGGGGAGGGAGUGAACUUGC	2.94
UAAUGUGUUUUUAUUUAUUAAAGACAAUUUUGUGCUAAGGACUGUGUUAGAUUUAUAUAUUAGUGAAUUGAUUCCUCUUUGUUGUGUUACUUUUGUUGUUGAAAAUAAAAAGAACUUUGA	2.16
CUGUUGUCAAGCACUGUGUUCCAGACCGUGUCUGACUGUAGUGUAACCUAGGAGACUUUAUAGUUUUGUUUUAUUGAAACCCGCGUGCCGCAGAGCCCGGGAGGGCAGUGUCUCCGUGUG	1.24
UCCCUAACUUGUUCUAGCUUGUGAUCCUGCAAAGUUGGGUGAAGCACUGGUGCCAGAUACCAGAAAUUUUCAUUUCUCUAUUGCCGCUGAUCAGAGAGACAGACAUGAAAAAACAGGAAU	0.342
